Assay results from different studies.
Every numbered part comes from another study and shows a few of its results, in no order.
Chain of UniProt P29320 (whole entry, looked up): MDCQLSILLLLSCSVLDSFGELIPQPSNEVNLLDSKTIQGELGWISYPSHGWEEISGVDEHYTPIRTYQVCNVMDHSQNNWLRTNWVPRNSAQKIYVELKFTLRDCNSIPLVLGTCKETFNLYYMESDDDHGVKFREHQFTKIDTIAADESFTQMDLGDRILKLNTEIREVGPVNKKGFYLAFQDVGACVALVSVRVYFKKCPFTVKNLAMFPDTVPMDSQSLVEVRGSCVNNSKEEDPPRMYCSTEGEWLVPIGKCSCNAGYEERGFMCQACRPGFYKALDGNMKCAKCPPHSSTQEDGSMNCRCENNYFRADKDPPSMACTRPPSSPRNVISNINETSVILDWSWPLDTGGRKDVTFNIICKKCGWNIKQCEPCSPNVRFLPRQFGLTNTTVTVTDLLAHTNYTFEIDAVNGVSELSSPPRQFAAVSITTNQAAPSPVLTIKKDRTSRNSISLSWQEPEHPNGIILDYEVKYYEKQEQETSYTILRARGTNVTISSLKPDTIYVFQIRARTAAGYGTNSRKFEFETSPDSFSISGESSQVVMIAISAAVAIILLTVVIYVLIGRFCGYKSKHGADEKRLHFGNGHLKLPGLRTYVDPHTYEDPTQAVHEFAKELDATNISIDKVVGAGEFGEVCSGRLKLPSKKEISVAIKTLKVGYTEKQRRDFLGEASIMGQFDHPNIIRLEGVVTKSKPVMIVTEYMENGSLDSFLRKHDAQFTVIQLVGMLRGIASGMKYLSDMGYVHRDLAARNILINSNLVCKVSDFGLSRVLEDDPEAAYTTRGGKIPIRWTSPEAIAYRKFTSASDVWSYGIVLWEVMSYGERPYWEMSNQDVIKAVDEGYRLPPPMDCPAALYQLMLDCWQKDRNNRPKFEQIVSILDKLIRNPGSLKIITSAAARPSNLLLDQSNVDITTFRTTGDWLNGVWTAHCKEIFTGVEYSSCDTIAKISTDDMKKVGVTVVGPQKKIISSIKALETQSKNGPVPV
Chain of UniProt P46734 (whole entry, looked up): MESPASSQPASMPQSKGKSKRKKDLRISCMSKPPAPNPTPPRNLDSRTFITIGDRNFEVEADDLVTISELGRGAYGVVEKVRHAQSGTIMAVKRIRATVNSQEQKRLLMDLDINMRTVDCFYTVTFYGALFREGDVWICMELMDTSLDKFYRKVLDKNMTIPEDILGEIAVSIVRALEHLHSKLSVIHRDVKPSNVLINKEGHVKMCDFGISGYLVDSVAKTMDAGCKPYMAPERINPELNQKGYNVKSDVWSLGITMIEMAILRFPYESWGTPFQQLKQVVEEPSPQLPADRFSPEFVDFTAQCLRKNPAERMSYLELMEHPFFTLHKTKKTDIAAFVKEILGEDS
Chain of UniProt P32298 (whole entry, looked up): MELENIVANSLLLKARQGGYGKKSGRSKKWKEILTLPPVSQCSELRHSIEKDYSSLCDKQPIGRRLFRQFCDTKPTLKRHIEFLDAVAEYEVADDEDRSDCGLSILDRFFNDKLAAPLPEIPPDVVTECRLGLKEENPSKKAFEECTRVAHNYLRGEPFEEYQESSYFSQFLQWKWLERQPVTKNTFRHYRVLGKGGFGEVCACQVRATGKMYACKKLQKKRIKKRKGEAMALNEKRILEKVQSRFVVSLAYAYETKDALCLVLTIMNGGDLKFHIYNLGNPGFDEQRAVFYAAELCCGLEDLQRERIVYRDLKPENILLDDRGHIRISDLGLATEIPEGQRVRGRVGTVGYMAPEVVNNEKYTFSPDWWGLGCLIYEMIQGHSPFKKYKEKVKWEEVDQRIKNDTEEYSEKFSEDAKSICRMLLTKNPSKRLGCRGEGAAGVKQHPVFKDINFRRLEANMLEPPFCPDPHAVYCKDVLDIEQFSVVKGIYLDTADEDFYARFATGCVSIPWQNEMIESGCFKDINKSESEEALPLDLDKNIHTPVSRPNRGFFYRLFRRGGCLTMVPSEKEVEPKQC
Chain of UniProt P24723 (whole entry, looked up): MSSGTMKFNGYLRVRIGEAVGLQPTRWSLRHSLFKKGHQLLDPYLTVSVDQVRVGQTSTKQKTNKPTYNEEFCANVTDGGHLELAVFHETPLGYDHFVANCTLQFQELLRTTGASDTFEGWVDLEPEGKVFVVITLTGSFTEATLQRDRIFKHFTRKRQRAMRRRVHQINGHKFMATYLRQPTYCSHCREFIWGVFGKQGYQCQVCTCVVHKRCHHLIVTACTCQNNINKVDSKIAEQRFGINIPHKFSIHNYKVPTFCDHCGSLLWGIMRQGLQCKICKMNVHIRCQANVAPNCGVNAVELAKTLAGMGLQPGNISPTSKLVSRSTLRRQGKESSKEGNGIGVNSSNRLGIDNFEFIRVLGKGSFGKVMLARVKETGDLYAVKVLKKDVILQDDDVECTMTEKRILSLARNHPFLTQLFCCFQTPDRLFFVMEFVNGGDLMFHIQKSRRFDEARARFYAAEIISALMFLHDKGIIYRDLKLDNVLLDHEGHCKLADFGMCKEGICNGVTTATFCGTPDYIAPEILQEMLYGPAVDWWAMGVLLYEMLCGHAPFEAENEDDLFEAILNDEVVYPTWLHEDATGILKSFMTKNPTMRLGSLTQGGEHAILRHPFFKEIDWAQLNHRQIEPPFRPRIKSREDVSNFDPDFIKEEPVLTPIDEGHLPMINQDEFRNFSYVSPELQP

Sample 1
Target: Serine/threonine-protein kinase PAK 4 (PAK4, Homo sapiens, UniProt O96013)
Chain of UniProt O96013 (whole entry, looked up): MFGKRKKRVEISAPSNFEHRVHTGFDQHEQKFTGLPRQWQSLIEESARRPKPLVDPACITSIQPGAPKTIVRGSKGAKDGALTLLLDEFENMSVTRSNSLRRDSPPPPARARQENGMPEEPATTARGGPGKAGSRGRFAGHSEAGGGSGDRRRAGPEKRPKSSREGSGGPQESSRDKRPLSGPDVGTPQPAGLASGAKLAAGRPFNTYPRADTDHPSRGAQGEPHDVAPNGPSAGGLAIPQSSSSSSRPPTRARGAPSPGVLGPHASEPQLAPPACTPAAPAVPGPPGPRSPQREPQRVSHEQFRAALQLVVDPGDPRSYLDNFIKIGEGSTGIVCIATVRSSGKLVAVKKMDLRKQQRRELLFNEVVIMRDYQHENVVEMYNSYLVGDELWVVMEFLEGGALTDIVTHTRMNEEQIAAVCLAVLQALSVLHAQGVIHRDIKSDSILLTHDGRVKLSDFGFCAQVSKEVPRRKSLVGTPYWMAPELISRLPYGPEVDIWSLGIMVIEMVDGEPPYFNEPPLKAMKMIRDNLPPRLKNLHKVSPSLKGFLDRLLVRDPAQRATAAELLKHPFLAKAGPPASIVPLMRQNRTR
Effect on: enzyme activity
Action: inhibitor
Concentration: 0.5 µM
Relative to: control
Measurement: remaining activity
SMILES = Nc1nc(Nc2ccc(S(N)(=O)=O)cc2)nn1C(=O)c1c(F)cccc1F; value = 90%
SMILES = CC#CC(=O)Nc1cc2c(Nc3ccc(F)c(Cl)c3)ncnc2cn1; value = 107%
SMILES = CC(C)(C)n1nc(Cc2cccc3ccccc23)c2c(N)ncnc21; value = 94.4%
SMILES = CCCC(=O)Oc1ccc2[nH]c(C(=O)c3cc4ccccc4[nH]3)cc2c1; value = 87.4%
SMILES = Cc1cncc2cccc(S(=O)(=O)N3CCCN(C(=O)CN)C[C@@H]3C)c12; value = 99.5%
SMILES = N#CC(=C(N)Sc1ccc(N)cc1)c1ccccc1C(F)(F)F; value = 99.4%
SMILES = CCc1[nH]c(-c2ccc(OC)cc2)nc1-c1ccncc1; value = 118%
SMILES = Fc1ccc(-c2nc3n(c2-c2ccncc2)CCS3)cc1; value = 99.1%
SMILES = Oc1ccc(Nc2nc(-c3ccc(Cl)cc3)cs2)cc1; value = 102%
SMILES = COc1ccc(S(=O)(=O)N(CCO)c2ccccc2CN(C)CC=Cc2ccc(Cl)cc2)cc1; value = 101%

Sample 2
Target: Hepatocyte nuclear factor 3-alpha (Foxa1, Mus musculus, UniProt P35582, residues 1-468, full length assumed)
Chain of UniProt P35582 (whole entry, looked up): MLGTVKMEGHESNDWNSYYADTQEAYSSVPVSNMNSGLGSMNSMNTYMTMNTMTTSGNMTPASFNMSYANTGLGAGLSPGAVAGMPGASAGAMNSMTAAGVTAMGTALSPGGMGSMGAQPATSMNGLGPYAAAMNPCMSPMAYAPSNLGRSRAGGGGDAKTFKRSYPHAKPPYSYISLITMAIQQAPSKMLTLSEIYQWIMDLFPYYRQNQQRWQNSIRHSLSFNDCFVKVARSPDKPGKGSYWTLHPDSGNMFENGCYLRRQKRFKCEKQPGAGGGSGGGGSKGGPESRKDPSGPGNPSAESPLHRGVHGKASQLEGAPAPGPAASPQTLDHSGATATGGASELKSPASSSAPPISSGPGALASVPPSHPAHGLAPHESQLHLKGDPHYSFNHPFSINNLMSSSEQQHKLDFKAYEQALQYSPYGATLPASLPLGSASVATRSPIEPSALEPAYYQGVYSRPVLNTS
Method: EMSA with sequencing
Molecule type: double-stranded DNA, one strand shown
Medium: in vitro
Concentration: 10 and 20 nM
Setting: whole designed probe, mean of two concentrations, ends assumed
Relative to: negative control set to 0
Direction: higher = stronger binding
Measurement: normalised bound fraction
Strand = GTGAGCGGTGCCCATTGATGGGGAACGCCTAATTTGTCTCTTCCAGTAAAAGTATTTGAGAAATTTTCCATTGCCCAATACCTTCCCATGATGGAAAATACACTGCATGGAAGGTATGTGTAATTTTTTGATTCGTGTTTTACTGATTTCAGTGTCACAACCTAGCAATCATTAACACTTCGAAAAACATACACCTGGTTAGTTGTTTCCAAAGTACATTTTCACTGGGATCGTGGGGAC; value = -0.0236 ratio
Strand = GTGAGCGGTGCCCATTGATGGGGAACCCCTCATCCTGGGTGTCGGGGTGGGAGGTGTTCTCATCATGAATGGGAGGCGTACCCAGATCCAGCTCTGCCTTGTGACTCACCAACCAGAGTGTAAACAAATGGCTGTGTGTCACACCATAATCGACATAGCAAGATATGATACATGCCAGGAGAGAAAAAGAAAGTGCTGATGGAAAAATAATCTCATTAGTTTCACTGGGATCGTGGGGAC; value = 0.409 ratio
Strand = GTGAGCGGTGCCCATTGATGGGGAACATCTTCCCCCTCTTCCTTGCCCCACCAGCTCACCTTCCCGGGTTATTTGCAGATAGGAAAATAAATAAAGCCGGCATTCGTTAACCCTCTTCACGCGCATACTGCCAGAGCAAACAGATCTAACATGGGATGAATCATGCGCCAGGCTCCGGGAGAGCAAAGCACCGTGTCAGGGCCATGATCCGGGGTGGCCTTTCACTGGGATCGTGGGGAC; value = 0.388 ratio
Strand = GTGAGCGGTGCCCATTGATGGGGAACGTGCTCAGCAGCCTTCAACATTAGGATGTGACGCACTTGGAAGCTTGCTCCTTCCTGGTTATCAGCCAAGACAGTGTTGACAGTTGATCGTTCAGTAAACATTATCTCTGCACATAGCGGTAAATGACACCGCAATAAATAAATGTTAGGGAGAAAATGCAGGCAAAACTTCACAATAAAAGCGAGGCATTTCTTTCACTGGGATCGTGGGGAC; value = 0.325 ratio
Strand = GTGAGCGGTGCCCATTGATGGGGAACAGGGACACTCAGAGAGTGAGGGAAGAAGGCTCTGAAGATCTCACTACTGCAGAGCAAACAGCTCCATACAGTGATCTTCCTCACCCCAGAGAATGTTTACTCTATTAAATGTTAGAAGAGCATGTGTAAATAGCAAGCTTATTTAGTTTTCAGTTCCACCTCCCTTGGAAAGGAAAAGTGATACAATCATCTTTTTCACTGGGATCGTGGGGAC; value = 0.389 ratio

Sample 3
Compound: Cc1c(NC(=O)c2cc(C(N)=O)nc3cc(F)ccc23)c(C(F)(F)F)nn1Cc1ccc(C#N)cc1
Effect on: cell-free assay
Method: competition with immobilised ligand
Concentration: 1 µM
Measurement: remaining binding
target = G protein-coupled receptor kinase 4 (GRK4, Homo sapiens, UniProt P32298); value = 100%
target = Protein kinase C eta type (PRKCH, Homo sapiens, UniProt P24723); value = 95%
target = Ephrin type-A receptor 3 (EPHA3, Homo sapiens, UniProt P29320); value = 90%
target = Dual specificity mitogen-activated protein kinase kinase 3 (MAP2K3, Homo sapiens, UniProt P46734); value = 88%

Single results of other studies
Molecule = HSP90B1 (Homo sapiens, UniProt P14625); partner = GIMAP2 (Homo sapiens, UniProt Q9UG22); method = cross-linking MS; medium = cells; together with = BSPNO; measurement = cross-linked residues; value = K87 to K319

Repeated from above (sample 1):
SMILES = CCCC(=O)Oc1ccc2[nH]c(C(=O)c3cc4ccccc4[nH]3)cc2c1; value = 87.4%
